Measured values of several laboratories.
Compare with care: the assays were run in different laboratories. Numbers after ± are the reported error.

`NC1CCN(C(=O)Oc2ccc(C3CCCC4(C3)OOC3(O4)C4CC5CC(C4)CC3C5)cc2)CC1` (racemic) gave a half-life of roughly 10 h (male Sprague-Dawley rats, plasma; intravenous, 10 mg/kg).
With `CSCC[C@@H]1NC(=O)[C@H](C(C)C)NC(=O)[C@H](CCCNC(=N)N)NC(=O)CNC(=O)[C@@H]2CCCN2C(=O)[C@@H](NC(=O)CNC(=O)[C@H](CO)NC(=O)CNC(=O)[C@H](CO)NC(=S)Nc2ccc(C[C@H]3CN(CC(=O)O)CCN(CC(=O)O)CCN3CC(=O)O)cc2)CSSC[C@@H](C(N)=O)NC(=O)[C@@H]2CCCN2C(=O)CNC(=O)[C@H](CCC(=O)O)NC(=O)[C@H](CC(=O)O)NC(=O)[C@H](CC(=O)O)NC(=O)CNC(=O)[C@H](CC(C)C)NC(=O)[C@H](Cc2c[nH]cn2)NC(=O)[C@H](CC(C)C)NC(=O)CNC(=O)[C@H](Cc2c[nH]cn2)NC1=O` [copper-64 labelled] the half-life was 0.04 ± 0.00167 h (dynamic PET; CD rat, myocardial infarction model, remote myocardium; intravenous, 18.5 MBq, 0 to 5 min).
`CCCC[C@@H]1NC(=O)[C@H](Cc2ccc(O)cc2)NC(=O)[C@@H]2CCCN2C(=O)[C@H](CC(=O)O)NC(=O)[C@H](C)NC(=O)[C@H](Cc2ccccc2)NC(=O)[C@@H]2CSCCC(=O)N3CN(CN(C3)C(=O)CCSC[C@@H](C(=O)N[C@@H](C)C(N)=O)NC1=O)C(=O)CCSC[C@H](NC(C)=O)C(=O)N[C@@H](CC(C)(C)C)C(=O)N1CCC[C@H]1C(=O)N[C@@H](CCC(=O)O)C(=O)N[C@H](CCCCNC(=O)CCc1cn(CCOCCOCCOCCN(CCOCCOCCOCCC(=O)N[C@H]3CSCCC(=O)N4CN5CN(C4)C(=O)CCSC[C@H](NC(=O)[C@@H](CC(=O)O)NC(=O)[C@H](Cc4cccc6ccccc46)NC(=O)[C@@H]4CCCN4C3=O)C(=O)N[C@@H](CCSC)C(=O)N[C@@H](CCCCNC(=N)N)C(=O)N[C@@H](CC(=O)O)C(=O)N[C@@H](Cc3c[nH]c4ccccc34)C(=O)N[C@@H](CO)C(=O)N[C@@H]([C@@H](C)O)C(=O)N3CCC[C@H]3C(=O)N3C[C@H](O)C[C@H]3C(=O)N[C@@H](Cc3c[nH]c4ccccc34)C(=O)N[C@H](C(N)=O)CSCCC5=O)CCOCCOCCOCCn3cc(CCC(=O)NCCCC[C@H]4NC(=O)[C@H](CCC(=O)O)NC(=O)[C@@H]5CCCN5C(=O)[C@H](CC(C)(C)C)NC(=O)[C@@H](NC(C)=O)CSCCC(=O)N5CN6CN(C5)C(=O)CCSC[C@H](NC(=O)[C@H](Cc5ccc(O)cc5)NC(=O)[C@@H]5CCCN5C4=O)C(=O)N[C@@H](Cc4ccccc4)C(=O)N[C@@H](C)C(=O)N[C@@H](CC(=O)O)C(=O)N4CCC[C@H]4C(=O)N[C@@H](Cc4ccc(O)cc4)C(=O)N[C@@H](CCCC)C(=O)N[C@H](C(=O)N[C@@H](C)C(N)=O)CSCCC6=O)nn3)nn1)C(=O)N1CCC[C@H]1C(=O)N[C@@H](Cc1ccc(O)cc1)C(=O)N2` has a half-life of 3.6 ± 0.6 h (Sprague-Dawley rat).
The half-life of `CCN1CC2(COC)C(O)CC(OC)C34C5CC6(O)C(OC)C(O)C(O)(C5C6OC(=O)c5ccccc5)C(C(OC)C23)C14` (centres unmarked) is reported as 5.39 ± 1.97 h (Sprague-Dawley rat, plasma; oral, dose not given, in PCW extract).
`O=C(O)/C=C\c1ccc2occc2c1O[C@@H]1O[C@H](CO)[C@@H](O)[C@H](O)[C@H]1O` has a half-life of 2.75 ± 0.5 h (rat, plasma; oral, 500 mg/kg Eu + 217 mg/kg Pc extract, dosed as combined Eu and Pc extracts).
With `C=C/C=C/C[C@@H](C)[C@@H](O)[C@H]1C(=O)N[C@@H](CC)C(=O)N(C)CC(=O)N(C)[C@@H](CC(C)C)C(=O)N[C@@H](C(C)C)C(=O)N(C)[C@@H](CC(C)C)C(=O)N[C@@H](C)C(=O)N[C@H](C)C(=O)N(C)[C@@H](CC(C)C)C(=O)N(C)[C@@H](CC(C)C)C(=O)N(C)[C@@H](C(C)C)C(=O)N1C` the half-life was 11.4 ± 2.1 h (LC-MS/MS; rat, Wistar Kyoto, male, whole blood; intraperitoneal, 0.4 mg/kg single dose).
For `COCC12CCC(OC)C34C5CC6(O)C(OC)C(O)C(O)(C5C6OC(=O)c5ccccc5)C(C(OC)C13)C4N(C)C2` (centres unmarked), the half-life was 4.38 ± 0.533 h (Sprague-Dawley rat, plasma; oral, dose not given, in PCW extract).
`COc1ccc(-n2cc(C(=O)N3C[C@]4(OC(=O)c5ccccc5NC(C)=O)CC[C@H](OC)[C@@]56[C@@H]4C[C@@H]([C@@H]35)[C@@]3(O)C[C@H](OC)[C@H]4C[C@@H]6[C@]3(O)[C@H]4OC)nn2)cc1` gave a half-life of 0.347 h (rat Sprague-Dawley, plasma; intravenous, 2 mg/kg).

Some of these lines once more:
For `COCC12CCC(OC)C34C5CC6(O)C(OC)C(O)C(O)(C5C6OC(=O)c5ccccc5)C(C(OC)C13)C4N(C)C2` (centres unmarked), the half-life was 4.38 ± 0.533 h (Sprague-Dawley rat, plasma; oral, dose not given, in PCW extract).
